# Assay results of several laboratories.
# Every numbered part comes from another study and shows a few of its results, in no order. Positions count from the first letter of the parent shown.

# Sample 1 — technique: RNA Bind-n-Seq; molecule type: RNA; sample: in vitro; concentration: 200 nM; setting: whole 134-nt RNA, ends assumed; together with: 150 mM KCl; relative to: input library; reading: higher = stronger binding
# Target: Fragile X messenger ribonucleoprotein 1, C-terminal low-complexity region (Fmr1, Mus musculus, UniProt P35922)
# Constant ends, left off below: GGGAGUUCUACAGUCCGACGAUC … UGGAAUUCUCGGGUGUCAAGG
Strand,log2 enrichment
CUGUGCUACACAUCGUAUGUACCGAAUCGGGUUUUUUUGGGAAAAAAAGGGAAAAAAAGGGAAAGUAUUAUGUUACGCCGUUCGGAUCUG,-1.59
CCUCAAGUCCUGUGCUACACAUCGUAUGUACCGAAUCGGAGGAGGGGAGGGGAAAGUAUUAUGUUACGCCGUUCGGAUCUGCACUUCCAG,0.481
CAAGUCCUGUGCUACACAUCGUAUGUACCGAAUCGGUUUGGAAAAAGGAAAAAGGAAAGUAUUAUGUUACGCCGUUCGGAUCUGCACUUC,-0.643
UCCUCAAGUCCUGUGCUACACAUCGUAUGUACCGAAUCGGGUGGUGGGUGGAAAGUAUUAUGUUACGCCGUUCGGAUCUGCACUUCCAGC,0.228
CACAGACAACACGCACCCACACAGACACAGAGGGGAGGGGUUGGGAUGGGGACAGGGUGCACAGCAGGGCGGGGUAGGACCCCAGCCCCU,1.27
AGUCCUGUGCUACACAUCGUAUGUACCGAAUCGGGGCCCCGGGGCCCCGGGGCCCCGGAAAGUAUUAUGUUACGCCGUUCGGAUCUGCAC,0.443
CUCAAGUCCUGUGCUACACAUCGUAUGUACCGAAUCGGGGCCGGCCGGGCCGGAAAGUAUUAUGUUACGCCGUUCGGAUCUGCACUUCCA,-0.0814
CUGUGCUACACAUCGUAUGUACCGAAUCAAAUUUUUUUAAAUUUUUUUAAAUUUUUUUAAAAAAGUAUUAUGUUACGCCGUUCGGAUCUG,-1.63
UCCUGUGCUACACAUCGUAUGUACCGAAUCGGGGAAAAAGGGGAAAAAAAGGGGAGGGGAAAGUAUUAUGUUACGCCGUUCGGAUCUGCA,0.544
AGUCCUGUGCUACACAUCGUAUGUACCGAAUCGGGGAAAAAGGAAAAAGGAAAAAGGGAAAGUAUUAUGUUACGCCGUUCGGAUCUGCAC,-0.403
CUCAAGUCCUGUGCUACACAUCGUAUGUACCGAAUCGGUUUUUGGAGGUUUGGAAAGUAUUAUGUUACGCCGUUCGGAUCUGCACUUCCA,-0.406
GUCCUGUGCUACACAUCGUAUGUACCGAAUCAAACCCCCCCAAAUUUAAACCCCCAAAAAAGUAUUAUGUUACGCCGUUCGGAUCUGCAC,0.122
AGUCCUGUGCUACACAUCGUAUGUACCGAAUCGGGAGGGUUUUUUUGGGAAAAAGGGAAAGUAUUAUGUUACGCCGUUCGGAUCUGCACU,0.0997
CCUGUGCUACACAUCGUAUGUACCGAAUCGGCCCCCCGGGCCCCCCGGGGCCCCCCGGGGAAAGUAUUAUGUUACGCCGUUCGGAUCUGC,-0.786

# Sample 2 — target: CCNE1, cyclin fold, Cln2 fusion (human); technique: yeast growth competition, sequencing; sample: yeast; setting: weak parent motif; relative to: not given; reading: higher = stronger binding
# Starting sequence: CUX1 docking peptide (human); SRIRRELFIEEIQ
Substitution,normalised enrichment score
SRIRRELFIEEAQ [I12A],-0.383
SAIRRELFIEEIQ [R2A],-0.0497
SRIRAELFIEEIQ [R5A],-0.278
SRIARELFIEEIQ [R4A],0.282
ARIRRELFIEEIQ [S1A],1.56
SRIRREAFIEEIQ [L7A],-0.242
SRIRKELFIEEIQ [R5K],0.624

# Sample 3 — technique: aptamer microarray, sandwich; molecule type: DNA with 2'F-ANA; sample: in vitro; concentration: 200 nM; together with: Cy3 exosite-II aptamer, 400 nM; reading: higher = stronger binding; strand: GGTTGGTGTGGTTGG
# Target: Prothrombin, mature alpha-thrombin (F2, Homo sapiens, UniProt P00734)
# Setting: whole 15-mer aptamer, many near background
Modification,mean fluorescence intensity
2'F-ANA at 1 4 5 6 7 11 12 14,56.6 a.u.
2'F-ANA at 1 2 4 5 6 7 8 9 10 14,51.8 a.u.
2'F-ANA at 1 3 4 5 8 9 10 11 12 15,50.2 a.u.
2'F-ANA at 3 4 6 7 8 9 12 13,706 a.u.
2'F-ANA at 1 4 6 7 8 9 11 12 15,235 a.u.
2'F-ANA at 1 2 5 6 7 8 13 15,57.8 a.u.
2'F-ANA at 1 2 3 5 6 7 8 9 11 13 15,54.1 a.u.
2'F-ANA at 1 2 4 6 9 11,92.6 a.u.
2'F-ANA at 1 3 9 10 12 15,114 a.u.
2'F-ANA at 2 3 4 7 8 13 14,351 a.u.
2'F-ANA at 2 4 6 8 9 10 13 14 15,60 a.u.
2'F-ANA at 1 2 3 4 8 9 12 13 15,235 a.u.
2'F-ANA at 1 4 5 8 9 12 15,115 a.u.
2'F-ANA at 1 4 8 9 11,114 a.u.
2'F-ANA at 1 2 3 7 8 11 12,424 a.u.
2'F-ANA at 1 3 4 7 8 9 13 14 15,65.6 a.u.
2'F-ANA at 2 3 5 7 9 10,53.7 a.u.
2'F-ANA at 1 2 4 6 8 9 10 11 13 15,47.5 a.u.

# Sample 4 — technique: universal PBM; molecule type: double-stranded DNA, one strand shown; sample: in vitro; concentration: 600 nM; reading: higher = stronger binding
# Target: Sal-like protein 4, full length isoform A (SALL4, Homo sapiens, UniProt Q9UJQ4, residues 1-1053)
# UniProt Q9UJQ4, sequence (whole entry, looked up): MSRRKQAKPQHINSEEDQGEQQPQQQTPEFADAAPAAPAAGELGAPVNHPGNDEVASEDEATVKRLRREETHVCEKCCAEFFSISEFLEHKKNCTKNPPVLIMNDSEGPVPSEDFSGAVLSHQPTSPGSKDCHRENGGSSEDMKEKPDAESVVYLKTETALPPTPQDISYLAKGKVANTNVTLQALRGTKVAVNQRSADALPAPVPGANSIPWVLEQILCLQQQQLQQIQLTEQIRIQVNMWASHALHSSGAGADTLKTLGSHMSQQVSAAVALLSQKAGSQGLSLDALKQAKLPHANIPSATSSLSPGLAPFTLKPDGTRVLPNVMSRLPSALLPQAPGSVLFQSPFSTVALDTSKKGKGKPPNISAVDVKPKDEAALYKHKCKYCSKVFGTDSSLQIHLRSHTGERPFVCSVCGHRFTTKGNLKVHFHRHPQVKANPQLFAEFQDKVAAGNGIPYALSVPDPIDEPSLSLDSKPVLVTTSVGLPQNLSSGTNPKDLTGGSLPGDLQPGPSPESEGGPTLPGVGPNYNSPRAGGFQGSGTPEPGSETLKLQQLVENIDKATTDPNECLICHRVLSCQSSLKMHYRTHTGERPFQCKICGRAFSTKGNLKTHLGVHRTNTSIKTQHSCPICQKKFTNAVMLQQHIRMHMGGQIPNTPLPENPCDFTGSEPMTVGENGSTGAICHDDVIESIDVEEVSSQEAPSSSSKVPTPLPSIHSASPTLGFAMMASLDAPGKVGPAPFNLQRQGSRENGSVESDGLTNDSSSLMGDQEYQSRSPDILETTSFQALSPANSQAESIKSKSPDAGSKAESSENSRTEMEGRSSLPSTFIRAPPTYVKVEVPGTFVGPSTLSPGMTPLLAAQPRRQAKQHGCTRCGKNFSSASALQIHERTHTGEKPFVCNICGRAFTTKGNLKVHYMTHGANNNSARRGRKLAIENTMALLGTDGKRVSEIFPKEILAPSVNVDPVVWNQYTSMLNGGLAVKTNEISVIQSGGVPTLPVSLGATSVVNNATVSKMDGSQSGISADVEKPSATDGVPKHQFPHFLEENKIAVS
# Setting: 8-mer, flanks averaged, mean of replicates
Strand,E-score
ATCGGCGC,-0.234
ATGGGCCA,-0.137
GGGAATGA,0.167
CGTGATCC,-0.322
ATCCTCGC,-0.158
AGCGAATG,-0.16
GCTCTCCA,-0.115
GTTCGCGA,-0.0358
CATTCAGC,-0.0605
GGCATGCC,-0.31
CCTATTAG,0.135
AGACCTAC,-0.109
ATTCCGGG,-0.125
AAGCCAAT,0.172
ACGCGGAT,-0.0618
CCGACAGG,-0.201
CGGCTGGA,-0.288
GCCAGACC,-0.372

# Sample 5 — technique: DHFR PCA, deep sequencing; sample: yeast; together with: (+)-ABA 0.11 µM; relative to: wild-type fitted maximum; reading: higher = stronger binding
# Target: ABI1, truncated, D143A, DHFR fusion (Arabidopsis thaliana)
# Setting: methotrexate growth selection, single substitutions
# Starting sequence: PYL1, truncated, DHFR fusion (Arabidopsis thaliana); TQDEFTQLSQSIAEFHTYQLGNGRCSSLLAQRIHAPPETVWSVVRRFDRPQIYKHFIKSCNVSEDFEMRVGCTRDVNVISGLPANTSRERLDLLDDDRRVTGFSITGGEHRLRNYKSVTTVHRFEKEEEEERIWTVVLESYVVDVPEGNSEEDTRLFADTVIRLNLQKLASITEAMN; partner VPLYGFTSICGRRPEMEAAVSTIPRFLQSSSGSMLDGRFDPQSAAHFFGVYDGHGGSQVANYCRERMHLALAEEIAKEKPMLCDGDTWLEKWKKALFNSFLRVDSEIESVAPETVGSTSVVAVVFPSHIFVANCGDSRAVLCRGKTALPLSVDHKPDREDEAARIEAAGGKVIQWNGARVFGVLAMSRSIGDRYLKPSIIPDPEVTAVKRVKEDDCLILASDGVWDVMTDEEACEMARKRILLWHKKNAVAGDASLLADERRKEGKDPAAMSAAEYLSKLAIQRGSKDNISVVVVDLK
Substitution,relative binding score [%]
G71S,0.213
E147T,7.84
I133E,63.4
M68T,5.24
L166K,1.11
Y141A,5.33
I79T,24.7
Q31T,0.958
P37H,-0.00887
S26E,-1.38
S42R,14.8
S150R,7.26
V137N,12.8
S80M,43.1
C25K,-9.14
M176C,10.1
D96K,-4.39
T173L,-2.22

# Sample 6 — technique: protein-binding microarray; molecule type: double-stranded DNA, one strand shown; sample: in vitro; concentration: 250 nM; setting: 60-bp whole probe; together with: salmon DNA 0.4 mg/ml; relative to: random background probes; reading: higher = stronger binding; constant ends, left off below: GCCTAGCAC … GTCTTGATTCGCTTGACGCTGCTG
# Target: Interferon regulatory factor 7, full length, phosphomimetic (IRF7, Homo sapiens, UniProt Q92985, residues 1-503, S101K/S471D/S472D/S475D/S476D/S477D/S483D/S484D/S487D)
# UniProt Q92985, sequence (whole entry, unmodified, looked up): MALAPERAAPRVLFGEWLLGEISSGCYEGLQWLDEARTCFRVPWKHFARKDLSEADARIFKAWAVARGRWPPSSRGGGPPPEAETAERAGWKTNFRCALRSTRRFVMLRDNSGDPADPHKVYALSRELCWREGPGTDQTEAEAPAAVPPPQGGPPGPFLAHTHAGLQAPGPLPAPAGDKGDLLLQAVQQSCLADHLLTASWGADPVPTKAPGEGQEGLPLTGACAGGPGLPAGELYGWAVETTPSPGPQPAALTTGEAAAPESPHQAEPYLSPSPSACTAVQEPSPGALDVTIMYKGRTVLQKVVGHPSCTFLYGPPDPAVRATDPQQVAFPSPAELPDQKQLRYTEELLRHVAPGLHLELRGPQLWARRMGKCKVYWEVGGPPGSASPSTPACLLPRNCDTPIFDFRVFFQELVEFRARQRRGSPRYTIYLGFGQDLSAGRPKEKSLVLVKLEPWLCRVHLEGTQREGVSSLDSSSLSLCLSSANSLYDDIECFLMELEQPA
Strand,log fluorescence [z-score]
GACGGAATCGACTTTCGGGACGTGCTA,0.56
TTAGGTATGCTTATCCTTTAGTGCTAG,-0.0713
TACGGTCTCGGTCTCGGGACGTGCTAG,1.09
TCTCATTCCAATTCTTTTTATGTGCTA,1.16
GACGATTTCGGGTTTCGAGGCGTGCTA,3.04
TTAGGACTGCCTATCCTTTAGTGCTAG,-0.0369
TTAGATCTCAGTCTCCATTAGTGCTAG,0.371
GACGTTTTCGGGTATCGGGACGTGCTA,1.92
TTAGGTTTCGGGATTCGGTTAGTGCTA,8.35
GACGTTATCGGGTTTCGGGACGTGCTA,2
TCACCTCTCCCCTCTTGTACTGTGCTA,0.0249
TAAGGACTGGGTCTCGGTTAGTGCTAG,1.2
TCAAATTTCTTTCTAATACTGTGCTAG,0.659
GACGGCCTGGGTCTCGGGACGTGCTAG,-0.613
TCACATTAAATTTTAATACTGTGCTAG,0.611
TTAGGTAACCTTATCCTTTAGTGCTAG,-0.0265

# A few entries again (sample 6):
Strand,log fluorescence [z-score]
TTAGGACTGCCTATCCTTTAGTGCTAG,-0.0369
TTAGATCTCAGTCTCCATTAGTGCTAG,0.371
GACGTTTTCGGGTATCGGGACGTGCTA,1.92
TTAGGTTTCGGGATTCGGTTAGTGCTA,8.35
GACGTTATCGGGTTTCGGGACGTGCTA,2
TCACCTCTCCCCTCTTGTACTGTGCTA,0.0249
TAAGGACTGGGTCTCGGTTAGTGCTAG,1.2
TCAAATTTCTTTCTAATACTGTGCTAG,0.659
GACGGCCTGGGTCTCGGGACGTGCTAG,-0.613
TCACATTAAATTTTAATACTGTGCTAG,0.611
TTAGGTAACCTTATCCTTTAGTGCTAG,-0.0265
